Experimental data gathered from unrelated publications.
± marks the error that the study gave.

Structure (SMILES)	species	matrix	route	dose	time	tissue uptake
CCCC[C@H](NC(=O)CNC(=O)CNC(=O)CN1CCN(CC(=O)O)CCN(CC(=O)O)CC1)C(=O)N[C@H]1CC(=O)NCCCC[C@@H](C(N)=O)NC(=O)[C@H](Cc2c[nH]c3ccccc23)NC(=O)[C@H](CCCNC(=N)N)NC(=O)[C@@H](Cc2ccccc2)NC(=O)[C@H](Cc2c[nH]cn2)NC1=O [technetium-99m labelled]	C57 mouse	skin	iv	0.037 MBq	4 h	0.07 ± 0.07 %ID/g
CCCC[C@H](NC(=O)COCCOCCNC(=O)CN1CCN(CC(=O)O)CCN(CC(=O)O)CC1)C(=O)N[C@H]1CC(=O)NCCCC[C@@H](C(N)=O)NC(=O)[C@H](Cc2c[nH]c3ccccc23)NC(=O)[C@H](CCCNC(=N)N)NC(=O)[C@@H](Cc2ccccc2)NC(=O)[C@H](Cc2c[nH]cn2)NC1=O [copper-64 labelled]	C57 mice	lung	intravenous	0.37 MBq	0.5 h	4.04 ± 0.12 %ID/g
CC(C)C[C@H](NC(=O)[C@@H](CCCCNC(=O)CCCCCNC(=O)CN1CCN(CC(=O)O)CCN(CC(=O)O)CCN(CC(=O)O)CC1)NC(=O)[C@H](Cc1ccc(O)cc1)NC(=O)[C@H](CO)NC(=O)[C@H](Cc1c[nH]c2ccccc12)NC(=O)[C@H](Cc1cnc[nH]1)NC(=O)[C@@H]1CCC(=O)N1)C(=O)N[C@@H](CCCNC(=N)N)C(=O)N1CCC[C@H]1C(=O)NCC(N)=O [indium-111 labelled]	female athymic nude mouse	tumor	intravenous	0.037 MBq	2 h	0.29 ± 0.1 %ID/g
N=C(N)NCCC[C@@H]1NC(=O)[C@H](CCCCNC(=O)CC[C@H](NC(=O)CC[C@H](NC(=O)CN2CCN(CC(=O)O)CCN(CC(=O)O)CCN(CC(=O)O)CC2)C(=O)N[C@@H](CCC(=O)NCCCC[C@@H]2NC(=O)[C@@H](Cc3ccccc3)NC(=O)[C@H](CC(=O)O)NC(=O)CNC(=O)[C@H](CCCNC(=N)N)NC2=O)C(=O)NCCCC[C@@H]2NC(=O)[C@@H](Cc3ccccc3)NC(=O)[C@H](CC(=O)O)NC(=O)CNC(=O)[C@H](CCCNC(=N)N)NC2=O)C(=O)NCCCC[C@@H]2NC(=O)[C@@H](Cc3ccccc3)NC(=O)[C@H](CC(=O)O)NC(=O)CNC(=O)[C@H](CCCNC(=N)N)NC2=O)NC(=O)[C@@H](Cc2ccccc2)NC(=O)[C@H](CC(=O)O)NC(=O)CNC1=O [indium-111 labelled]	female athymic nu/nu mice	brain	intravenous	–	0.5 h	0.15 ± 0.04 %ID/g
CCCC[C@H](NC(=O)CNC(=O)CNC(=O)CN1CCN(CC(=O)O)CCN(CC(=O)O)CCN(CC(=O)O)CC1)C(=O)N[C@H]1CC(=O)NCCCC[C@@H](C(N)=O)NC(=O)[C@H](Cc2c[nH]c3ccccc23)NC(=O)[C@H](CCCNC(=N)N)NC(=O)[C@@H](Cc2ccccc2)NC(=O)[C@H](Cc2c[nH]cn2)NC1=O [lutetium-177 labelled]	C57 mouse, female	kidneys	intravenous	0.037 MBq	24 h	4.75 ± 1.03 %ID/g
CCCC[C@H](NC(=O)CCCCCCCNC(=O)CN1CCN(CC(=O)O)CCN(CC(=O)O)CC1)C(=O)N[C@H]1CC(=O)NCCCC[C@@H](C(N)=O)NC(=O)[C@H](Cc2c[nH]c3ccccc23)NC(=O)[C@H](CCCNC(=N)N)NC(=O)[C@@H](Cc2ccccc2)NC(=O)[C@H](Cc2c[nH]cn2)NC1=O [copper-64 labelled]	C57 mice	blood	intravenous	0.37 MBq	24 h	0.02 ± 0.03 %ID/g
N=C(N)NCCC[C@@H]1NC(=O)[C@H](CCCCNC(=O)CNC(=O)CNC(=O)CNC(=O)CC[C@H](NC(=O)CNC(=O)CNC(=O)CNC(=O)CC[C@H](NC(=O)CN2CCN(CC(=O)O)CCN(CC(=O)O)CCN(CC(=O)O)CC2)C(=O)NCC(=O)NCC(=O)NCC(=O)N[C@@H](CCC(=O)NCC(=O)NCC(=O)NCC(=O)NCCCC[C@@H]2NC(=O)[C@@H](Cc3ccccc3)NC(=O)[C@H](CC(=O)O)NC(=O)CNC(=O)[C@H](CCCNC(=N)N)NC2=O)C(=O)NCC(=O)NCC(=O)NCC(=O)NCCCC[C@@H]2NC(=O)[C@@H](Cc3ccccc3)NC(=O)[C@H](CC(=O)O)NC(=O)CNC(=O)[C@H](CCCNC(=N)N)NC2=O)C(=O)NCC(=O)NCC(=O)NCC(=O)NCCCC[C@@H]2NC(=O)[C@@H](Cc3ccccc3)NC(=O)[C@H](CC(=O)O)NC(=O)CNC(=O)[C@H](CCCNC(=N)N)NC2=O)NC(=O)[C@@H](Cc2ccccc2)NC(=O)[C@H](CC(=O)O)NC(=O)CNC1=O [indium-111 labelled]	female athymic nu/nu mice	U87MG tumour	intravenous	111 kBq	1 h	11.4 ± 2.46 %ID/g
CC(C)C[C@H](NC(=O)[C@H](Cc1ccc(O)cc1)NC(=O)[C@@H](CCCNC(=N)N)NC(=O)[C@@H](CO)NC(=O)[C@H](Cc1ccccc1)NC(=O)[C@H](CC1CCCCC1)NC(=O)[C@H](CC(=O)O)NC(=O)CN1CCCN2CCN(CCCN(CC(=O)O)CC2)CC1)C(=O)N[C@@H](Cc1c[nH]c2ccccc12)C(=O)N[C@@H](CO)C(=O)O [copper-64 labelled]	female NMRI nude mice	stomach	–	–	22 h p.i.	1.1 ± 0.4 %ID/g
N=C(N)NCCC[C@@H]1NC(=O)[C@H](CCCCNC(=O)CNC(=O)CNC(=O)CNC(=O)CC[C@H](NC(=O)CNC(=O)CNC(=O)CNC(=O)CN2CCN(CC(=O)O)CCN(CC(=O)O)CCN(CC(=O)O)CC2)C(=O)NCC(=O)NCC(=O)NCC(=O)NCCCC[C@@H]2NC(=O)[C@@H](Cc3ccccc3)NC(=O)[C@H](CC(=O)O)NC(=O)CNC(=O)[C@H](CCCNC(=N)N)NC2=O)NC(=O)[C@@H](Cc2ccccc2)NC(=O)[C@H](CC(=O)O)NC(=O)CNC1=O [copper-64 labelled]	athymic nu/nu mouse, female	liver	intravenous	–	4 h	3.62 ± 0.62 %ID/g
N=C(N)NCCC[C@@H]1NC(=O)[C@H](CCCCNC(=O)CNC(=O)CNC(=O)CNC(=O)CC[C@H](NC(=O)CNC(=O)CNC(=O)CNC(=O)CN2CCN(CC(=O)O)CCN(CC(=O)O)CCN(CC(=O)O)CC2)C(=O)NCC(=O)NCC(=O)NCC(=O)NCCCC[C@@H]2NC(=O)[C@@H](Cc3ccccc3)NC(=O)[C@H](CC(=O)O)NC(=O)CNC(=O)[C@H](CCCNC(=N)N)NC2=O)NC(=O)[C@@H](Cc2ccccc2)NC(=O)[C@H](CC(=O)O)NC(=O)CNC1=O [indium-111 labelled]	female athymic nu/nu mice	kidney	intravenous	–	1 h	3.88 ± 0.48 %ID/g

Some of these lines once more:
Structure (SMILES)	species	matrix	route	dose	time	tissue uptake
N=C(N)NCCC[C@@H]1NC(=O)[C@H](CCCCNC(=O)CNC(=O)CNC(=O)CNC(=O)CC[C@H](NC(=O)CNC(=O)CNC(=O)CNC(=O)CN2CCN(CC(=O)O)CCN(CC(=O)O)CCN(CC(=O)O)CC2)C(=O)NCC(=O)NCC(=O)NCC(=O)NCCCC[C@@H]2NC(=O)[C@@H](Cc3ccccc3)NC(=O)[C@H](CC(=O)O)NC(=O)CNC(=O)[C@H](CCCNC(=N)N)NC2=O)NC(=O)[C@@H](Cc2ccccc2)NC(=O)[C@H](CC(=O)O)NC(=O)CNC1=O [indium-111 labelled]	female athymic nu/nu mice	kidney	intravenous	–	1 h	3.88 ± 0.48 %ID/g
CCCC[C@H](NC(=O)CNC(=O)CNC(=O)CN1CCN(CC(=O)O)CCN(CC(=O)O)CCN(CC(=O)O)CC1)C(=O)N[C@H]1CC(=O)NCCCC[C@@H](C(N)=O)NC(=O)[C@H](Cc2c[nH]c3ccccc23)NC(=O)[C@H](CCCNC(=N)N)NC(=O)[C@@H](Cc2ccccc2)NC(=O)[C@H](Cc2c[nH]cn2)NC1=O [lutetium-177 labelled]	C57 mouse, female	kidneys	intravenous	0.037 MBq	24 h	4.75 ± 1.03 %ID/g
